Experimental data collected from several papers.
Lines come from different studies, so protocols differ. ± marks the error that the study gave.

| SMILES | system | conditions | tissue uptake |
| --- | --- | --- | --- |
| N=C(N)NCCC[C@@H]1NC(=O)[C@H](CCCCNC(=O)CC[C@H](NC(=O)CC[C@H](NC(=O)CN2CCN(CC(=O)O)CCN(CC(=O)O)CCN(CC(=O)O)CC2)C(=O)N[C@@H](CCC(=O)NCCCC[C@@H]2NC(=O)[C@@H](Cc3ccccc3)NC(=O)[C@H](CC(=O)O)NC(=O)CNC(=O)[C@H](CCCNC(=N)N)NC2=O)C(=O)NCCCC[C@@H]2NC(=O)[C@@H](Cc3ccccc3)NC(=O)[C@H](CC(=O)O)NC(=O)CNC(=O)[C@H](CCCNC(=N)N)NC2=O)C(=O)NCCCC[C@@H]2NC(=O)[C@@H](Cc3ccccc3)NC(=O)[C@H](CC(=O)O)NC(=O)CNC(=O)[C@H](CCCNC(=N)N)NC2=O)NC(=O)[C@@H](Cc2ccccc2)NC(=O)[C@H](CC(=O)O)NC(=O)CNC1=O [indium-111 labelled] | female athymic nu/nu mice, brain | intravenous, 24 h | 0.07 ± 0.02 %ID/g |
| CC(C)C[C@H](NC(=O)[C@H](Cc1ccc(O)cc1)NC(=O)[C@@H](CCCNC(=N)N)NC(=O)[C@@H](CO)NC(=O)[C@H](Cc1ccccc1)NC(=O)[C@H](CC1CCCCC1)NC(=O)[C@H](CC(=O)O)NC(=O)CN1CCCN2CCN(CCCN(CC(=O)O)CC2)CC1)C(=O)N[C@@H](Cc1c[nH]c2ccccc12)C(=O)N[C@@H](CO)C(=O)O [copper-64 labelled] | female NMRI nude mice, lung | 22 h p.i. | 2.9 ± 0.4 %ID/g |
| Cc1cc(O)cc(C)c1C[C@H](NC(=O)[C@@H]1CCCN1C(=O)[C@H](CCCNC(=N)N)NC(=O)[C@H](CCCNC(=N)N)N(C)C(=O)[C@@H]1CCCN1C(=O)[C@H](CCCCN)NC(=O)[C@@H](CC(C)C)NC(=O)[C@@H](CC(C)C)NC(=O)[C@@H](CC(C)C)NC(=O)[C@@H](CC(C)C)NC(=O)CN1CCN(CC(=O)O)CCN(CC(=O)O)CCN(CC(=O)O)CC1)C(=O)N[C@H](C(=O)N[C@@H](CC(C)C)C(=O)O)C(C)(C)C [lutetium-177 labelled] | CF-1 mouse, small intestine | iv, 370 kBq, 1 h | 4.46 ± 0.58 %ID/g |
| N=C(N)NCCC[C@@H]1NC(=O)[C@H](CCCCNC(=O)CNC(=O)CNC(=O)CNC(=O)CC[C@H](NC(=O)CNC(=O)CNC(=O)CNC(=O)CC[C@H](NC(=O)CN2CCN(CC(=O)O)CCN(CC(=O)O)CCN(CC(=O)O)CC2)C(=O)NCC(=O)NCC(=O)NCC(=O)N[C@@H](CCC(=O)NCC(=O)NCC(=O)NCC(=O)NCCCC[C@@H]2NC(=O)[C@@H](Cc3ccccc3)NC(=O)[C@H](CC(=O)O)NC(=O)CNC(=O)[C@H](CCCNC(=N)N)NC2=O)C(=O)NCC(=O)NCC(=O)NCC(=O)NCCCC[C@@H]2NC(=O)[C@@H](Cc3ccccc3)NC(=O)[C@H](CC(=O)O)NC(=O)CNC(=O)[C@H](CCCNC(=N)N)NC2=O)C(=O)NCC(=O)NCC(=O)NCC(=O)NCCCC[C@@H]2NC(=O)[C@@H](Cc3ccccc3)NC(=O)[C@H](CC(=O)O)NC(=O)CNC(=O)[C@H](CCCNC(=N)N)NC2=O)NC(=O)[C@@H](Cc2ccccc2)NC(=O)[C@H](CC(=O)O)NC(=O)CNC1=O [indium-111 labelled] | female athymic nu/nu mice, muscle | intravenous, 111 kBq, 24 h | 0.93 ± 0.54 %ID/g |
| N=C(N)NCCC[C@@H]1NC(=O)[C@H](CCCCNC(=O)CCOCCOCCOCCOCCNC(=O)CC[C@H](NC(=O)CCOCCOCCOCCOCCNC(=O)CN2CCN(CC(=O)O)CCN(CC(=O)O)CCN(CC(=O)O)CC2)C(=O)NCCOCCOCCOCCOCCC(=O)NCCCC[C@@H]2NC(=O)[C@@H](Cc3ccccc3)NC(=O)[C@H](CC(=O)O)NC(=O)CNC(=O)[C@H](CCCNC(=N)N)NC2=O)NC(=O)[C@@H](Cc2ccccc2)NC(=O)[C@H](CC(=O)O)NC(=O)CNC1=O [copper-64 labelled] | athymic nude mouse, female, whole blood | iv, 4 h | 0.15 ± 0.07 %ID/g |
| CCCC[C@H](NC(=O)COCCOCCNC(=O)CN1CCN(CC(=O)O)CCN(CC(=O)O)CC1)C(=O)N[C@H]1CC(=O)NCCCC[C@@H](C(N)=O)NC(=O)[C@H](Cc2c[nH]c3ccccc23)NC(=O)[C@H](CCCNC(=N)N)NC(=O)[C@@H](Cc2ccccc2)NC(=O)[C@H](Cc2c[nH]cn2)NC1=O [copper-64 labelled] | C57 mice, muscle | intravenous, 0.37 MBq, 4 h | 0.03 ± 0.05 %ID/g |
| CCCC[C@H](NC(=O)CNC(=O)CNC(=O)CN1CCN(CC(=O)O)CCN(CC(=O)O)CCN(CC(=O)O)CC1)C(=O)N[C@H]1CC(=O)NCCCC[C@@H](C(N)=O)NC(=O)[C@H](Cc2c[nH]c3ccccc23)NC(=O)[C@H](CCCNC(=N)N)NC(=O)[C@@H](Cc2ccccc2)NC(=O)[C@H](Cc2c[nH]cn2)NC1=O [lutetium-177 labelled] | C57 mouse, female, lung | intravenous, 0.037 MBq, 4 h | 0.24 ± 0.04 %ID/g |
| CC(C)C[C@H](NC(=O)CN1CCN(CC(=O)O)CCN(CC(=O)O)CC1)C(=O)N[C@@H](CC(C)C)C(=O)N[C@@H](CC(C)C)C(=O)N[C@@H](CC(C)C)C(=O)N[C@@H](CCCNC(=N)N)C(=O)N[C@H](C(=O)N[C@@H](CCCCN)C(=O)N[C@@H](CCCNC(=N)N)C(N)=O)C(C)C [copper-64 labelled] | CD1 mouse, male, pancreas | intravenous, 15 min | 3.3 ± 0.1 %ID/g |
| CCCC[C@H](NC(=O)CCCCCCCNC(=O)CN1CCN(CC(=O)O)CCN(CC(=O)O)CC1)C(=O)N[C@H]1CC(=O)NCCCC[C@@H](C(N)=O)NC(=O)[C@H](Cc2c[nH]c3ccccc23)NC(=O)[C@H](CCCNC(=N)N)NC(=O)[C@@H](Cc2ccccc2)NC(=O)[C@H](Cc2c[nH]cn2)NC1=O [copper-64 labelled] | C57 mice, heart | intravenous, 0.37 MBq, 0.5 h | 1.49 ± 0.33 %ID/g |
| N=C(N)NCCC[C@@H]1NC(=O)[C@H](CCCCNC(=O)CNC(=O)CNC(=O)CNC(=O)CC[C@H](NC(=O)CNC(=O)CNC(=O)CNC(=O)CN2CCN(CC(=O)O)CCN(CC(=O)O)CCN(CC(=O)O)CC2)C(=O)NCC(=O)NCC(=O)NCC(=O)NCCCC[C@@H]2NC(=O)[C@@H](Cc3ccccc3)NC(=O)[C@H](CC(=O)O)NC(=O)CNC(=O)[C@H](CCCNC(=N)N)NC2=O)NC(=O)[C@@H](Cc2ccccc2)NC(=O)[C@H](CC(=O)O)NC(=O)CNC1=O [indium-111 labelled] | female athymic nu/nu mice, lungs | intravenous, 0.5 h | 3.13 ± 0.47 %ID/g |
